Published values collected from several papers.
Protocols differ between the studies behind these lines. “And” joins repeats or separate records; there may be more than shown.

Compound	tested on	assay	system	conditions	how to read	quantity	result
S=C(Nc1ccccc1)c1ccccn1	Mus musculus	gene silencing, high-content imaging	LDR reporter GFP cells	retest run 1	–	maximal activity	115%
COc1cnc2cccc(N3CCc4c(cc(Cn5ccnc5C)cc4-c4cn(C)nc4C(F)(F)F)C3=O)c2c1	22Rv1	cell growth, inhibitor	–	120 h	–	EC50	2.96 µM
CCn1c(=O)c(-c2cc[nH]n2)cc2c(C)nc(N)nc21	Enterovirus A71	histopathology	EV71-infected suckling mice, liver	0.25 mg/kg	direction not given	inflammatory infiltration score	0
O=C(Nc1ccc(C2CCCCC2)cc1)[C@H]1CC1(F)F	–	hepatocyte stability	cryopreserved rat hepatocytes	1 µM	–	hepatic clearance	48 mL/min/kg
CC(C)=Cc1cccc2c1C(=NNc1ccc(S(N)(=O)=O)cc1)C(=O)N2	Trypanosoma brucei	–	–	unit not given	relative to: pEC50 T. brucei minus pTC50 HepG2	selectivity	2.5
CCn1cc(-c2cc(Cn3ccnc3)cc3c2CCN([C@H](c2cc(OC)ccn2)C2CC2)C3=O)c(C(F)(F)F)n1	HLF	cell growth, inhibitor	–	120 h	–	EC50	> 30 µM
COc1cccc(-n2ncc3c(N/N=C/c4ccncc4)ncnc32)c1	Trypanosoma brucei	–	–	unit not given	relative to: pEC50 T. brucei minus pTC50 HepG2	selectivity	> 2.4
O=C(Cn1ccnc1)Nc1ccc(C2CCCCC2)cc1	–	–	cryopreserved mouse hepatocytes	1 µM	–	hepatic clearance	42 mL/min/kg
CCn1cc(-c2cc(Cn3ccoc3=N)cc3c2CCN([C@@H](C)c2cc(OC)ccn2)C3=O)c(C(F)(F)F)n1	HMCB	cell growth, inhibitor	–	120 h	–	EC50	0.0341 µM
COc1cc2c(cc1Nc1nc(Nc3cccc(F)c3C(N)=O)c3cc[nH]c3n1)N(C(=O)CN1CCN(C(C)C)CC1)CC2	Trypanosoma brucei	–	–	unit not given	relative to: pEC50 T. brucei minus pTC50 HepG2	selectivity	1.4
N#Cc1ccc2c(-c3ccncc3)c(-c3ccc(F)cc3)nn2c1	–	kinase binding, competitor, MIB/MS competition, measured: IRE1	Candida albicans cell lysate	10 µM	relative to: DMSO	log2 fold change	0.186
CC1=C(C(=O)Nc2ccc3[nH]ncc3c2)C(c2ccc3ccccc3c2)CC(=O)N1 (stereo not shown)	Trypanosoma brucei	–	–	unit not given	relative to: pEC50 T. brucei minus pTC50 HepG2	selectivity	1.1
CC(=O)N[C@@H](CSC(=O)[C@]1([C@@H](O)C(C)C)NC(=O)[C@H](C)[C@@H]1O)C(=O)O	Mus musculus	gene silencing, high-content imaging	LDR reporter GFP cells	retest run 2	–	AC50	31.6 µM
CC(C)n1ncc2c(C(=O)NCC3(C)CNC3)cc(C3CC3)nc21	Enterovirus D68	cytopathic effect	RD, US/IL/14-18956	15 nM	–	cell protection	0% and -0.703%
Nc1ncc(-c2cccc(S(N)(=O)=O)c2)c2scc(-c3ccc(F)c(Cl)c3)c12	Trypanosoma brucei	–	–	unit not given	relative to: pEC50 T. brucei minus pTC50 HepG2	selectivity	0.7
O=C(/C=C/C=C/C=C/C1CCCCC1)NC1=C[C@@](O)(/C=C/C=C/C=C/C(=O)NC2=C(O)CCC2=O)[C@@H]2O[C@@H]2C1=O	NCI-H1581	cell growth, CellTiter-Glo	–	78 h	–	GI50	14.3 µM

Compound	tested on	assay	system	conditions	how to read	quantity	result
CC(C)C[C@@H](/C=C/S(C)(=O)=O)NC(=O)[C@H](CC(C)C)NC(=O)[C@H](CC(C)C)NC(=O)OCc1ccccc1	Mus musculus	gene silencing, high-content imaging	LDR reporter GFP cells	retest run 1	–	maximal activity	54%
CCN(CC)Cc1ccc(Nc2nccc(-c3cnn4ncccc34)n2)cc1	Trypanosoma brucei	–	–	unit not given	relative to: pEC50 T. brucei minus pTC50 HepG2	selectivity	> 3.5
Oc1[nH]c2ccccc2c1N=NC(=S)N1CCOCC1	Mus musculus	gene silencing, high-content imaging	LDR reporter GFP cells	retest run 2	–	maximal activity	100%
c1coc(-c2n[nH]cc2-c2ccnc3ccccc23)c1	POM1 (Candida albicans)	kinase binding, MIB/MS competition	Candida albicans lysate	10 µM	relative to: DMSO	log2 fold change	-0.43
O=C1Nc2ccc(-c3cccnc3)cc2C1=Cc1cc(Br)c(O)c(Br)c1	Trypanosoma brucei	–	–	unit not given	relative to: pEC50 T. brucei minus pTC50 HepG2	selectivity	1.2
Br.N=c1n(CC(=O)c2ccc([N+](=O)[O-])cc2)c2ccccc2n1Cc1ccccc1Cl	Mus musculus	gene silencing, high-content imaging	LDR reporter GFP cells	retest run 1	–	maximal activity	20%
Oc1ccccc1-c1n[nH]cc1-c1ccnc2ccccc12	PBS2 (Candida albicans)	kinase binding, MIB/MS competition	Candida albicans lysate	1 µM	relative to: DMSO	log2 fold change	0
Cn1cc(-c2ccc(-c3cncc(Cl)c3N3CCC4(CCNC4=O)CC3)cc2)cn1	COLO 205	microarray, measured: FAS	–	concentration not given, 2 h, gene set FasR(CD95)	relative to: untreated cells	fold change in expression	2.03
Cc1cc(NC(=O)C2CCCN(S(=O)(=O)c3cccc4nonc34)C2)ccc1Br (stereo not shown)	Mus musculus	gene silencing, high-content imaging	LDR reporter GFP cells	retest run 1	–	maximal activity	28%
NS(=O)(=O)c1ccc(N/N=C2\C(=O)Nc3ccc(-c4cnco4)cc32)cc1	Trypanosoma brucei	–	–	unit not given	relative to: pEC50 T. brucei minus pTC50 HepG2	selectivity	> 2.4
CC(C)NCC(O)c1ccc(O)c(O)c1 (stereo not shown)	β2 adrenergic receptor E122Q (human)	PRESTO-Tango luciferase	HTLA cells	3 nM	–	β-arrestin2 recruitment	320 RLU and 278 RLU and 291 RLU and 285 RLU and 239 RLU
N#Cc1sc2nc(-c3ccccc3)cc(C(F)(F)F)c2c1N	Mus musculus	gene silencing, high-content imaging	LDR reporter GFP cells	retest run 2	–	maximal activity	19%
C[C@H](Oc1ccc(Br)cc1-c1ccon1)C(=O)O	–	relative refractory period	human, tibialis anterior muscle	100 mg, SAD	–	difference from placebo	0.221 ms
COc1ccc(NC(=O)c2sc3nc(-c4ccc(OC)cc4)cc(C(F)(F)F)c3c2N)cc1	Mus musculus	gene silencing, high-content imaging	LDR reporter GFP cells	retest run 2	–	maximal activity	122%
Nc1cccc2c1C(=O)N(C1CCC(=O)NC1=O)C2=O (stereo not shown)	MM1.S	XTT	–	2 µM	–	viability	16% and 31%
